Assay results pooled from the literature.
Compare with care: the assays were run in different laboratories. Numbers after ± are the reported error.

Structure (SMILES)	assay	test system	setting	how to read	endpoint	result
COc1ccc(C2(F)CC2N)cc1 (stereo not shown)	potentiometric titration	0.1 M KNO3	21 °C		pKa	7.5
CN(C)c1cc(-c2ccncc2)c(-c2ccc3ccccc3c2)nn1					pKa	< 3.5
CCCCCCCCCCCCN(C)C			extrapolated from shorter analogues		pKa	10
O=C(O)C(F)(F)C(F)(F)F	19F NMR chemical shift titration			lower pKa than literature	pKa shift vs literature	0.5 to 1 pKa units
Cc1nonc1Cn1nnc2c(N3CC[C@H](O)C3)nc(C(C)(C)C)nc21			basic		pKa	2.6
COC(=O)[C@H]1[C@@H](c2ccc(Cl)cc2)C[C@@H]2CC[C@H]1N2CCCCCCCCCc1c2ccccc2cc2ccccc12	fluorometric titration		1 µM, 10% DMSO		pKa	4.9
COc1ccc(C2(F)CC2N)cc1OC (stereo not shown)	potentiometric titration	0.1 M KNO3	21 °C		pKa	7.4
COC(=O)[C@H]1[C@@H](c2ccc(Cl)c(Cl)c2)C[C@@H]2CC[C@H]1N2CCCOCc1ccc2cc3ccccc3cc2c1	fluorometric titration		1 µM, 10% DMSO		pKa	6.5
O=C(O)CNC(=O)C1C(=O)N(C2CCCCC2)C(=O)N(C2CCCCC2)C1=O			second acidic centre		pKa	6.1
O=C(O)C(F)F	19F NMR titration	MeOH/water	27 °C		pKa	1.22 ± 0.03
CCCCCCCCCN(C)C	extrapolated from shorter analogues				pKa	10
COc1cc(C[C@@H](C)N)c(OC)cc1I.Cl	potentiometric titration	water (extrapolated)			pKa (basic amine)	9.89
CC(C)(C)C(=O)NNCc1ccccc1	acid-base titration	water	average		pKa	2.65

Some of these lines once more:
Structure (SMILES)	assay	test system	setting	how to read	endpoint	result
COc1cc(C[C@@H](C)N)c(OC)cc1I.Cl	potentiometric titration	water (extrapolated)			pKa (basic amine)	9.89
